Measurements pooled from the literature.
Every numbered part comes from another study and shows a few of its results, in no order. Positions count from the first letter of the parent shown.
UniProt Q9NR20, sequence (whole entry, looked up): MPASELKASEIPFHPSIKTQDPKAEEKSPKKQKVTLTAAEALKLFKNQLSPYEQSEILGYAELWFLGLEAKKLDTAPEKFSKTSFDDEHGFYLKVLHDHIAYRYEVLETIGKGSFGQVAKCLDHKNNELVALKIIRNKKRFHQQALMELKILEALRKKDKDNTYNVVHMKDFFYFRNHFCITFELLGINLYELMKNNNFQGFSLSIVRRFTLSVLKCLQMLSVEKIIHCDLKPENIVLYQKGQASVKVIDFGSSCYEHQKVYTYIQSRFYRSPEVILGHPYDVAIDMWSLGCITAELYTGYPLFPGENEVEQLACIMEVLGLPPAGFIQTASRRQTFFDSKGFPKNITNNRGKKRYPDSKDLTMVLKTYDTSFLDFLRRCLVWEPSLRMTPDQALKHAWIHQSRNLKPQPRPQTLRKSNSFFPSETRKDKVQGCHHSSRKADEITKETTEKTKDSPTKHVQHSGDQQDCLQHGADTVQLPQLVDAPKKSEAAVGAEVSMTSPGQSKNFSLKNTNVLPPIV

Block 1 — technique: protein-binding microarray; molecule type: double-stranded DNA, one strand shown; matrix: in vitro; tested at: 2540 nM top; notes: 60-bp whole probe; with: salmon DNA 0.4 mg/ml; relative to: random background probes; reading: higher = stronger binding; all sequences stand within: GCCTAGCAC … GTCTTGATTCGCTTGACGCTGCTG
Target: Interferon regulatory factor 3, full length, phosphomimetic (IRF3, Homo sapiens, UniProt Q14653, residues 1-427, S386D/S396D/S398D/S402D/T404D/S405D)
UniProt Q14653, sequence (whole entry, unmodified, looked up): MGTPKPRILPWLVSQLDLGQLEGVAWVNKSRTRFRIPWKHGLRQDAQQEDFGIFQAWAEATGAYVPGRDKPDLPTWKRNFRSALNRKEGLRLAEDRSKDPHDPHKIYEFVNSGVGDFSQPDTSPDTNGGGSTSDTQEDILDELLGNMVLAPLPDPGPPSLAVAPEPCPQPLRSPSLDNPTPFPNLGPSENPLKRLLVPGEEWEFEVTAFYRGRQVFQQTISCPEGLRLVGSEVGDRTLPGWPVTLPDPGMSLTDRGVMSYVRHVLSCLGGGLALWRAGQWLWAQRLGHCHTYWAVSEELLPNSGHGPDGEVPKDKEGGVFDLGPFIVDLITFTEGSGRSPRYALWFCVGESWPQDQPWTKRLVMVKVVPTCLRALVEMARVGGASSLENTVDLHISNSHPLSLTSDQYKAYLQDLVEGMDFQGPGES
Oligonucleotide | fitted relative affinity
TTACATATCGGGTATCGATTAGTGCTA | 0.898 z-score
TTAGGTTTCGGGACGGGGTTAGTGCTA | 3.19 z-score
TTAGATATCGGGACTGGAGTAGTGCTA | -0.206 z-score
TTCCTTTACTTTCTTTTTTTGTGCTAG | 3.63 z-score
TTCGGACTGGACTTTCGGTTAGTGCTA | 1.02 z-score
GATGGACTGCTACTGCTGACGTGCTAG | -0.918 z-score
GTAGGTATCGGACTGGGTTAGTGCTAG | 1.13 z-score
GACGGTATCGACTTTCGGGATGTGCTA | 1.59 z-score

Block 2 — technique: competition protein-binding microarray; molecule type: double-stranded DNA, one strand shown; matrix: in vitro; tested at: 2 µM; with: Cbf1 competitor, 0.05 µM; reading: higher = stronger binding
Target: Phosphate system positive regulatory protein PHO4, full length, GST-tagged (PHO4, Saccharomyces cerevisiae, UniProt P07270, residues 1-312)
Notes: whole 60-bp probe, lowest competitor level
Construct (chain): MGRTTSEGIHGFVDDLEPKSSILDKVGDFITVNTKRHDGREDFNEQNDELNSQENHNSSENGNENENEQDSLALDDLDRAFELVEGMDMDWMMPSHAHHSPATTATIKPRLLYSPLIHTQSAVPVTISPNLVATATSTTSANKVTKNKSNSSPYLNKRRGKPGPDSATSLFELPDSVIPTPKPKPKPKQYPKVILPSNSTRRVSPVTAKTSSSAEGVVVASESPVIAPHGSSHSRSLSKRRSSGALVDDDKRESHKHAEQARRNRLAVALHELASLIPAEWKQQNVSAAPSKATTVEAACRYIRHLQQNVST
Oligonucleotide | fluorescence intensity
CTAACGAAGGTTTGGGCGGTGGGTGACAAGCCAAGTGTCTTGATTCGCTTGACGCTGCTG | 3680 a.u.
GAAGATGACTGCTTCCTCGTGTTGATCCATTATTTTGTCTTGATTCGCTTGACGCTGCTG | 9830 a.u.
GGTTTGGGTCTTGTTCTCGTGGAGGATCCTTTTGGTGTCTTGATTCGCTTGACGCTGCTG | 6130 a.u.
CATACCCAACCTTGGCAAGTGGGTGAAGATATTTGTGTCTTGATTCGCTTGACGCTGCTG | 4890 a.u.
TTGCGGTATAGGGTCCACGTGATGGGAATAAAAGCAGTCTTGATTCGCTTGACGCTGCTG | 15700 a.u.
GTCTTGTCTCATTTTCACGTGCCGTTCCCCACTTCAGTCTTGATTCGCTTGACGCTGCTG | 13100 a.u.
AAATTACTAAGTTGGAATGTGGGTGACGCCGTATGAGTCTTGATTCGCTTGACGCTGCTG | 6110 a.u.
ATCCTGAGAAGTTAGCATGTGCTATCGTTGAAGCCAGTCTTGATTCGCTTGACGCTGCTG | 13400 a.u.

Block 3 — target: ATF3, bZIP domain (human); technique: DHFR protein complementation; matrix: yeast; relative to: wild-type JUN-FOS pair; reading: higher = stronger binding
Notes: single substitutions, most at no-binding floor
Parent: JUN, bZIP domain (human); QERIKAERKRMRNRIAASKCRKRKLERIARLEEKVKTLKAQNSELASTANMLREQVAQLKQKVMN; partner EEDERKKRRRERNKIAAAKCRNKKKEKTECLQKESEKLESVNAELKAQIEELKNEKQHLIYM
Substitution | binding fitness [natural log]
E44A | -0.104
R30S | -0.0105
K34A | -0.319
T37W | -0.0704
S47M | -0.16
K34I | -0.292
L38S | -0.983
K36D | -0.246

Further values, each from its own experiment
Compound | target | observed | mode | tested at | relative to | endpoint | result
O=C1c2ccccc2-c2n[nH]c3cccc1c23 | Dual specificity tyrosine-phosphorylation-regulated kinase 4 (DYRK4, Homo sapiens, UniProt Q9NR20) | enzyme activity | inhibitor | 0.5 µM | control | remaining activity | 105%
